Experimental data of several laboratories.
Each line is one published result; not all experiments were run side by side.
UCHL1: Ubiquitin carboxyl-terminal hydrolase isozyme L1 (UCHL1, Homo sapiens, UniProt P09936)
UniProt P09936, sequence (whole entry, looked up): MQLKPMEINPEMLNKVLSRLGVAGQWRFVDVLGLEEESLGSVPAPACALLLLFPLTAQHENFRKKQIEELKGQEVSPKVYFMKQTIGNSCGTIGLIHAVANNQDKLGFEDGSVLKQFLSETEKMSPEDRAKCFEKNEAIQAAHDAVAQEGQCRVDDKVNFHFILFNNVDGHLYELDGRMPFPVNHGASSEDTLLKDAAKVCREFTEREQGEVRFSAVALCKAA
T1: RNA aptamer; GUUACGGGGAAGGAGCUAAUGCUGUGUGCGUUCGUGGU
T2: RNA aptamer; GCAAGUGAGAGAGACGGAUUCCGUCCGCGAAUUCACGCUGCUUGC
T3: RNA aptamer; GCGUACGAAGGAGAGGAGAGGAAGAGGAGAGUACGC
T4: RNA aptamer, 3'-5' linkages; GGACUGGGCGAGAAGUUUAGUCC
T5: RNA aptamer; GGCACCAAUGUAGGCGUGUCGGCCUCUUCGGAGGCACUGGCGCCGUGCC
T6: RNA aptamer, circularly permuted; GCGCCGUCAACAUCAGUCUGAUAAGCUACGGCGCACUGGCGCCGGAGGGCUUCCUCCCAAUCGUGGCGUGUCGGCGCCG
T7: RNA aptamer A45G, 5'-triphosphate/2',3'-cyclic phosphate; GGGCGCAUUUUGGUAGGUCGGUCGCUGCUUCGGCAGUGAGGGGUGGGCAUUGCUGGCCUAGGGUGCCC
T8: RNA aptamer, 5'-triphosphate; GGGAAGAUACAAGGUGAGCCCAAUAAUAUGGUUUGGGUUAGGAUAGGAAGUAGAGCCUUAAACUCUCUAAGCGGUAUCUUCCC
T9: RNA aptamer, 2'-5' linkage G15-U16; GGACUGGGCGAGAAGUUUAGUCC
T10: RNA aptamer; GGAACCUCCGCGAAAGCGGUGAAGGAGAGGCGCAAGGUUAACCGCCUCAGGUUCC

N#CC(=Cc1ccc(F)cc1)C(=O)NCCc1cccc(Cl)c1
labelling (UCHL1; covalent, intact protein LC-MS; 12.5 µM): 13.5%

CN1C=CC(=Cc2sc3ccccc3[n+]2CC(=O)NCCOCCOCCOCCNC(=O)CCCC[C@@H]2SC[C@@H]3NC(=O)N[C@@H]32)c2ccccc21
binding (T1, RNA aptamer; fluorescence light-up; 10 µM dye): binds

Fc1ccc(Nc2nc(NCc3ncccn3)nc(Nc3ccccc3)n2)cc1
Kd (T2, RNA aptamer; ITC; 37 °C): 48 nM

CN1C(=Cc2cc[n+](C)c3ccccc23)Sc2ccccc21
Kd (T3, RNA aptamer; fluorescence titration; apparent): 5.9 nM

NC[C@@H]1O[C@H](O[C@H]2[C@@H](O)[C@H](O[C@@H]3[C@@H](O)[C@H](N)C[C@H](N)[C@H]3O[C@H]3O[C@H](CN)[C@@H](O)[C@H](O)[C@H]3N)O[C@@H]2CO)[C@H](N)[C@@H](O)[C@@H]1O
Kd (T4, RNA aptamer, 3'-5' linkages; ITC): 1 nM

Cc1c(Cc2ccccc2)c(NCCN(C)C)n2c(nc3ccccc32)c1C#N
inhibition (Trypanosoma cruzi; reporter translation, Renilla luciferase mRNA translation; cell-free extract; 40 µM; relative to: DMSO): -7.8%

CN(CCO)c1ccc(/C=C(\C#N)c2ccc(C#N)cc2)cc1
Kd (T5, RNA aptamer; fluorescence titration, Hill fit; apparent): 1920 nM

CN(CCO)c1cc2sc(/C=C(\C#N)c3ccc(C#N)cc3)cc2s1
binding (T6, RNA aptamer, circularly permuted; fluorescence activation, native PAGE): no binding

Nc1nc2c(ncn2[C@@H]2O[C@H](COP(=O)(O)OP(=O)(O)OP(=O)(O)O)[C@@H](O)[C@H]2O)c(=O)[nH]1
Kd (T7, RNA aptamer A45G, 5'-triphosphate/2',3'-cyclic phosphate; ITC): 309 nM

CC1=N/C(=C\c2cc(F)c(O)c(F)c2)C(=O)N1CC(F)(F)F
Kd (T8, RNA aptamer, 5'-triphosphate; not stated; not measured here): 45 nM

NCC[C@H](O)C(=O)N[C@@H]1C[C@H](N)[C@@H](O[C@H]2O[C@H](CN)[C@@H](O)[C@H](O)[C@H]2O)[C@H](O)[C@H]1O[C@H]1O[C@H](CO)[C@@H](O)[C@H](N)[C@H]1O
Kd (T9, RNA aptamer, 2'-5' linkage G15-U16; ITC): 1500 nM

Cc1cccc(NC(=O)C(C#N)=Cc2ccc(F)c(F)c2)c1
labelling (UCHL1; covalent, intact protein LC-MS; 12.5 µM): 20%

CN(C)c1ccc2c(-c3ccc(C(=O)O)cc3C(=O)[O-])c3ccc(=[N+](C)C)cc-3oc2c1
Kd (T10, RNA aptamer; ITC): 70 nM

For quick reference, copied from above:
CC1=N/C(=C\c2cc(F)c(O)c(F)c2)C(=O)N1CC(F)(F)F
Kd (T8, RNA aptamer, 5'-triphosphate; not stated; not measured here): 45 nM
